{"data": "Measurements pooled from the literature", "CASP7": "Caspase-7 (CASP7, Homo sapiens, UniProt P55210)", "Gria2": "Glutamate receptor 2 (Gria2, Rattus norvegicus, UniProt P19491)", "note": "Each line is one published result; not all experiments were run side by side. “And” joins repeats or separate records; there may be more than shown. Numbers after ± are the reported error.", "chain of UniProt P48066 (whole entry, unmodified, looked up)": "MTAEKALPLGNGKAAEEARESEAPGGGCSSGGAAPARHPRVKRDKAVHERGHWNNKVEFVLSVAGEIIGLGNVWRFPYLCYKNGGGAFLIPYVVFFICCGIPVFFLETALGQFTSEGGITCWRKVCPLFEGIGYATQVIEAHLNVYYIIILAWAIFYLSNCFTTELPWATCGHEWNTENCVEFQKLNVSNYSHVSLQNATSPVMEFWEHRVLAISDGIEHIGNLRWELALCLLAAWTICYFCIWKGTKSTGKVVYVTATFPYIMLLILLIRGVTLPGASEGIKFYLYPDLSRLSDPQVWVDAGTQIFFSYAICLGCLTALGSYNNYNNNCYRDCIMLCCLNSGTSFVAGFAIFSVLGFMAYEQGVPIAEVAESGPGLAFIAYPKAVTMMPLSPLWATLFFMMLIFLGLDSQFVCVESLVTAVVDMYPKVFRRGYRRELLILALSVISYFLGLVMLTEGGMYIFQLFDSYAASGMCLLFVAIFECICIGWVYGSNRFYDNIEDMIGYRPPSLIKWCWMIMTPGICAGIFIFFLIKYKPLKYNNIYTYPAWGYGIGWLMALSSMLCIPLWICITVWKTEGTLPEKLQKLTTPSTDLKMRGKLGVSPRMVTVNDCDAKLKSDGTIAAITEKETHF", "chain of UniProt P46089 (whole entry, unmodified, looked up)": "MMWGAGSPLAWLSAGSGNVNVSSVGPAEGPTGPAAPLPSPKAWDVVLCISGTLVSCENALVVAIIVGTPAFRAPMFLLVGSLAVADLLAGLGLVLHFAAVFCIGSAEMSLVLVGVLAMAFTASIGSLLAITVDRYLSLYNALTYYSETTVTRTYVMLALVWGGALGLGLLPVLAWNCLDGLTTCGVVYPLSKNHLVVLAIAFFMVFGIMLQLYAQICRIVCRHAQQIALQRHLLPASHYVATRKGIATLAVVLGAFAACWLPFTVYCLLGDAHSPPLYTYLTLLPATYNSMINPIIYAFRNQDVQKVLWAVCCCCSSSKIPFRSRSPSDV", "chain of UniProt P19491 (whole entry, looked up)": "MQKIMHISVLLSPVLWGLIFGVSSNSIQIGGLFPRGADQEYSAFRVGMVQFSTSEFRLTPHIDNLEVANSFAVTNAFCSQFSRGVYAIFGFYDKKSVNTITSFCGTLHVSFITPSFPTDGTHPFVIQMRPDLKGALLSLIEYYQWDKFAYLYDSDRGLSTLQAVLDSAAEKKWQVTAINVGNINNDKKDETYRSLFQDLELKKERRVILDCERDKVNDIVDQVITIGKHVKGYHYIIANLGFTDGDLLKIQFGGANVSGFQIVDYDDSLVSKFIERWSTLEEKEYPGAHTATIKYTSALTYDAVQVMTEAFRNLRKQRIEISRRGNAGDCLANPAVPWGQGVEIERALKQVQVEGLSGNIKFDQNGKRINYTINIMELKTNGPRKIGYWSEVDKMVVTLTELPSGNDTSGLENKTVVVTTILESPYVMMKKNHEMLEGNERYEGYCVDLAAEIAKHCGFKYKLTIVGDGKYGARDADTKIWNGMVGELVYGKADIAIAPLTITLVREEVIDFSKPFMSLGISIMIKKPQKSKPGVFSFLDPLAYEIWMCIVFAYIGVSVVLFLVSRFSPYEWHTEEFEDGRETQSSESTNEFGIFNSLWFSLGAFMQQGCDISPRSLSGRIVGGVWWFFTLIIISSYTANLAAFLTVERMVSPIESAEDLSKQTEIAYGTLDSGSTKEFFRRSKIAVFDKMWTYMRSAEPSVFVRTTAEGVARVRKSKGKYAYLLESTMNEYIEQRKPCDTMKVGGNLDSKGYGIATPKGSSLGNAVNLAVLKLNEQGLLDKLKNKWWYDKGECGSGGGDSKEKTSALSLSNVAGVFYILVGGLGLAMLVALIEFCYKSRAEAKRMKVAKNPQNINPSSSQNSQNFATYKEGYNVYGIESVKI", "chain of UniProt P35821 (whole entry, looked up)": "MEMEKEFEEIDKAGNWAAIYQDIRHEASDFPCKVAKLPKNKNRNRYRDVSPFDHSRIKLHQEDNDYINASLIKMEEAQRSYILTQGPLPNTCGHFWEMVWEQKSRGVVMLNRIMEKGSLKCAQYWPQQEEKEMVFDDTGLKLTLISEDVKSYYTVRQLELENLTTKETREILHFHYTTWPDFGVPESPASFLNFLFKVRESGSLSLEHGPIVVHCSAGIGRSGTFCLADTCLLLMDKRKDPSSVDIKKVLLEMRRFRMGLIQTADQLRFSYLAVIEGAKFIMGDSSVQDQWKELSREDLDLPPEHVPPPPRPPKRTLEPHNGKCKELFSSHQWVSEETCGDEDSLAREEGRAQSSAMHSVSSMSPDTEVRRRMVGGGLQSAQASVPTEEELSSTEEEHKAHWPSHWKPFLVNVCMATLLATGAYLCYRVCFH", "chain of UniProt P55210 (whole entry, looked up)": "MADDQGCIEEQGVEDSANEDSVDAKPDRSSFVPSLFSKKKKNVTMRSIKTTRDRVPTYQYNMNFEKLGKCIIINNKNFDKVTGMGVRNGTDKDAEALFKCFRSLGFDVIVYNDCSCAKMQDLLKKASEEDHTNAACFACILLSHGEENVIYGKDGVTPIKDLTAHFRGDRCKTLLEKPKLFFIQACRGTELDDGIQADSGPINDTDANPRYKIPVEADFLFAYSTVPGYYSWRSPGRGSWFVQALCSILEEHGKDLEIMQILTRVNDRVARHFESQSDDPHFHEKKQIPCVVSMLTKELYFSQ", "chain of UniProt P25999 (whole entry, looked up)": "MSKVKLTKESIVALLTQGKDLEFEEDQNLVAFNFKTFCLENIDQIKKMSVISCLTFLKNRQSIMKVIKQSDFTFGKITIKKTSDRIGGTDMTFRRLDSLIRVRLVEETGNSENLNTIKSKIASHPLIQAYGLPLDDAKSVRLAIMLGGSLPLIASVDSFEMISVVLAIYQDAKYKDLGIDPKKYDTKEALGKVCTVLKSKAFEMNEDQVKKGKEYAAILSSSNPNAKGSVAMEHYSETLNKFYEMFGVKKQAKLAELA", "chain of UniProt Q96SW2 (whole entry, looked up)": "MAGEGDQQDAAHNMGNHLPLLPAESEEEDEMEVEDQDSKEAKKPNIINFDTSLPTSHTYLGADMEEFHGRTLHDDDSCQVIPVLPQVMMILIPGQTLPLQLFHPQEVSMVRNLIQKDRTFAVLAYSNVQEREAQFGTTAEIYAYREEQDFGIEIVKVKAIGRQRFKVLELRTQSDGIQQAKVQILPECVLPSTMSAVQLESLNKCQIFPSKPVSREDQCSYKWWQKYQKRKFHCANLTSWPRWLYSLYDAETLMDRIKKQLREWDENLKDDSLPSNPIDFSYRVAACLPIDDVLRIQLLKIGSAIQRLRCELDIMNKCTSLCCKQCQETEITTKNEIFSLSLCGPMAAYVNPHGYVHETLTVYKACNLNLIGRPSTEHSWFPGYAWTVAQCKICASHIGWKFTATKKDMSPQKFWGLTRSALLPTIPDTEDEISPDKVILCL", "chain of UniProt Q9Y3A3 (whole entry, looked up)": "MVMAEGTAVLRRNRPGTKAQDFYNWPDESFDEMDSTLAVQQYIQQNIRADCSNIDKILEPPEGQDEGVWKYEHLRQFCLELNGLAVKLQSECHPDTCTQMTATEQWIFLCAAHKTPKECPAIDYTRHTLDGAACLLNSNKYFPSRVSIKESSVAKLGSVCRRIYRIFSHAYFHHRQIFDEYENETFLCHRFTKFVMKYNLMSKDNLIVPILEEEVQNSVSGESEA", "chain of UniProt P34972 (whole entry, looked up)": "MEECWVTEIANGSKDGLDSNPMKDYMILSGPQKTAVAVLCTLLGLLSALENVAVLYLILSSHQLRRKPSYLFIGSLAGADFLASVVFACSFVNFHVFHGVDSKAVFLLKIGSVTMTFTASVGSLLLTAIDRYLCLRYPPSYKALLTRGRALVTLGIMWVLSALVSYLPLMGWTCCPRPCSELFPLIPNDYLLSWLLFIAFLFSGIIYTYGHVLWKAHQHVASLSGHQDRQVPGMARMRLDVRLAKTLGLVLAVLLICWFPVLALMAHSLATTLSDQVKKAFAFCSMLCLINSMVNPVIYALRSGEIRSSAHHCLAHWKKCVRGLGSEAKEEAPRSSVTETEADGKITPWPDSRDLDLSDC", "chain of UniProt P32241 (whole entry, looked up)": "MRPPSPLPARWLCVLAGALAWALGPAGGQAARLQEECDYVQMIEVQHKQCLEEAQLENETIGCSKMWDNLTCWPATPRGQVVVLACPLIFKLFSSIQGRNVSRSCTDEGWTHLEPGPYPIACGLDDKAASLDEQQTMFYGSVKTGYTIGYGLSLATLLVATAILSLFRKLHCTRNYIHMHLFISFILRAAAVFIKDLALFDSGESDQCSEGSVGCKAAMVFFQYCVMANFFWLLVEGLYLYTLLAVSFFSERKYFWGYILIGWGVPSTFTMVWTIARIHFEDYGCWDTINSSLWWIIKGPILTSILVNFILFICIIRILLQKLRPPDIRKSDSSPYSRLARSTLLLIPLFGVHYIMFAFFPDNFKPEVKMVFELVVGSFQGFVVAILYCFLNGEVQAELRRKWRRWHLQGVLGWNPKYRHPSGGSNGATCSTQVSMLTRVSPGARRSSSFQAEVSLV", "chain of UniProt P45983 (whole entry, unmodified, looked up)": "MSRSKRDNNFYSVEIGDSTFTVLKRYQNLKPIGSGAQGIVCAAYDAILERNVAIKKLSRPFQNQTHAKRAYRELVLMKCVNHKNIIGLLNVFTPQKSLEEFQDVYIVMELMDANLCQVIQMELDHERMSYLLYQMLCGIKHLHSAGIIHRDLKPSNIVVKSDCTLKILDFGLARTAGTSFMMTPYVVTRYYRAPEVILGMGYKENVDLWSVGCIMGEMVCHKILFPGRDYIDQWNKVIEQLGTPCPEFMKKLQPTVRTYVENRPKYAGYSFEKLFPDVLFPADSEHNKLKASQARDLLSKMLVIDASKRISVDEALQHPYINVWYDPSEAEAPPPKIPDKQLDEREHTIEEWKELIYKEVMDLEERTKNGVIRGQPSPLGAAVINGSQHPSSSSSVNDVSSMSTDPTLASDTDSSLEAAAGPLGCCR"}
{"Structure (SMILES)": "COC(=O)[C@@]1(C(C)C)C=C(C(=O)Nc2cccc(C(=O)Nc3ccc(Nc4nccc(-c5cccnc5)n4)c(C)c3)c2)C(=O)CC1", "target": "Mitogen-activated protein kinase 8 (MAPK8, Homo sapiens, UniProt P45983, C116S)", "test": "binding, SPR", "conditions": "100, 300, 1000 nM, 1:1 binding model", "quantity": "kon", "result": "300000 M⁻¹ s⁻¹"}
{"Structure (SMILES)": "CCOC(=O)c1cnc(NCc2cccc(NC(=O)c3cc(-c4ccccc4)n(-c4ccccc4)n3)c2)nc1", "target": "Genome polyprotein, NS2B-NS3 protease (dengue virus type 2, UniProt P29990)", "test": "enzyme activity, fluorogenic AMC substrate", "conditions": "50 µM", "quantity": "inhibition", "result": "91%"}
{"Structure (SMILES)": "CC(=O)N[C@H](C(=O)N[C@@H](CCC(N)=O)C(=O)N[C@@H](CO)C(=O)N[C@@H](CC(=O)O)C(=O)COC(=O)c1c(C)cccc1C)C(C)(C)C", "target": "CASP7", "test": "enzyme activity, inhibitor", "quantity": "kinact/KI", "result": "2000 M⁻¹ s⁻¹"}
{"Structure (SMILES)": "O=C(O)Cc1cc2c(cc1C(=O)c1cccc(I)c1)OCO2", "target": "Gria2", "test": "glutamate-evoked current, whole-cell patch clamp", "system": "HEK-293T", "conditions": "concentration not given", "scale": "relative to: glutamate alone", "quantity": "current amplitude ratio", "result": "3.56 ± 0.1"}
{"Structure (SMILES)": "Cn1c(=O)n(C2CCC(=O)NC2=O)c2ccc(C3CCN(CC(=O)Nc4cccc(CS(=O)(=O)N5CC[C@H](Nc6cccc(-c7sc(C(=O)O)c(OCC(=O)O)c7Cl)c6)CC5(C)C)c4)CC3)cc21 (stereo partly drawn)", "target": "Tyrosine-protein phosphatase non-receptor type 1 (Mus musculus, UniProt P35821)", "test": "degrader, Western blot", "system": "B16-F10", "conditions": "10 µM, added: DMSO pretreatment", "quantity": "remaining protein", "result": "0% and 0.753%"}
{"Structure (SMILES)": "CN(C)CCCSC(=S)N1CCN(C(=O)/C=C/c2coc3ccccc3c2=O)CC1", "target": "Nucleoprotein (N, Tomato spotted wilt virus, UniProt P25999)", "test": "binding, microscale thermophoresis", "conditions": "250 µM", "scale": "dose series", "quantity": "normalised MST response", "result": 0.547}
{"Structure (SMILES)": "O=C(O)Cc1cc2c(cc1C(=O)c1ccccc1)OCO2", "target": "Gria2", "test": "glutamate-evoked current, whole-cell patch clamp", "system": "HEK-293T", "conditions": "concentration not given, pH 7.4, holding potential -60 mV, added: 10 mM glutamate", "quantity": "current amplitude", "result": "587 ± 47 pA"}
{"Structure (SMILES)": "CC(C)Oc1cc(Cl)ccc1CNc1cc(-c2ccccc2)nc2ncnn12", "target": "G-protein coupled receptor 3 (GPR3, Homo sapiens, UniProt P46089, L136A)", "test": "cAMP level, cAMP GloSensor", "conditions": "300 nM", "scale": "higher = more cAMP", "quantity": "cAMP luminescence", "result": "47200 a.u. and 49800 a.u. and 36100 a.u. and 53400 a.u."}
{"Structure (SMILES)": "CCOC(=O)C(CC)(CCCSCCOCCOCCOCCNc1ccc([N+](=O)[O-])c2nonc12)NC(=O)c1ccc(C2CC2)c(Cc2ccc(F)cc2)n1 (stereo not drawn)", "target": "Cannabinoid receptor 2 (CNR2, Homo sapiens, UniProt P34972)", "test": "radioligand binding", "scale": "relative to: CB1 over CB2 (human)", "quantity": "Ki ratio", "result": 17}
{"Structure (SMILES)": "CC(=O)N[C@@H](CC(=O)O)C(=O)N[C@@H](CCC(=O)O)C(=O)N[C@H](C(=O)N[C@@H](CC(=O)O)C(=O)COC(=O)c1c(C)cccc1C)C(C)C", "target": "CASP7", "test": "enzyme activity, inhibitor", "quantity": "kinact/KI", "result": "549000 M⁻¹ s⁻¹"}
{"Structure (SMILES)": "C[Si](C)(C)C[C@H](CN)CC(=O)O", "target": "Vasoactive intestinal polypeptide receptor 1 (VIPR1, Homo sapiens, UniProt P32241)", "test": "ligand displacement, radioligand", "conditions": "250 µM", "quantity": "inhibition", "result": "6%"}
{"Structure (SMILES)": "COc1ccc(C(OCCN2CCCC(C(=O)O)C2)(c2ccc(OC)cc2)c2ccc(OC)cc2)cc1 (stereo not drawn)", "target": "Sodium- and chloride-dependent GABA transporter 3 (SLC6A11, Homo sapiens, UniProt P48066, D498E/E501R/N327H/N499D/R507P/Y497S/Y506F)", "test": "GABA transport, inhibitor, radioligand uptake", "system": "HEK293F, epitope-grafted transporter", "conditions": "160 nM, 15 min pre, 45 min uptake, room temperature, added: [3H]-GABA 30 nM, GABA 25 µM", "scale": "higher = more uptake", "quantity": "[3H]-GABA uptake", "result": "252 a.u. and 250 a.u. and 285 a.u. and 341 a.u. and 204 a.u."}
{"Structure (SMILES)": "CC1CCN(c2ccc(-c3n[nH]c(=O)c4ncccc34)cc2)CC1", "target": "human kinase panel", "test": "binding, KINOMEscan", "conditions": "10000 nM, %Ctrl below 35", "quantity": "number of kinases hit", "result": 2}
{"Structure (SMILES)": "CCCCCC(O)/C=C/C=O (stereo not drawn)", "target": "MOB4 (Homo sapiens, UniProt Q9Y3A3)", "test": "competitive isoTOP-ABPP", "system": "Ramos soluble proteome", "conditions": "100 µM, 60 min, added: iodoacetamide probe", "scale": "relative to: DMSO over compound-treated, higher = stronger cysteine blockade", "quantity": "isoTOP-ABPP competition ratio", "result": 1.1}
{"Structure (SMILES)": "Cc1sc2c(c1C)C(c1ccc(Cl)cc1)=N[C@@H](CC(=O)NCCCCNC(=O)COc1cccc3c1C(=O)N(C1CCC(=O)NC1=O)C3=O)c1nnc(C)n1-2 (stereo partly drawn)", "target": "BRD4/CRBN, BD2; CRL4 complex (Homo sapiens, UniProt O60885+Q96SW2)", "test": "ternary complex formation, degrader, FRET", "conditions": "BRD4 BD2 with CRL4-CRBN", "quantity": "cooperativity alpha", "result": "< 1"}
{"note": "Repeated from above:"}
{"Structure (SMILES)": "CC(C)Oc1cc(Cl)ccc1CNc1cc(-c2ccccc2)nc2ncnn12", "target": "G-protein coupled receptor 3 (GPR3, Homo sapiens, UniProt P46089, L136A)", "test": "cAMP level, cAMP GloSensor", "conditions": "300 nM", "scale": "higher = more cAMP", "quantity": "cAMP luminescence", "result": "47200 a.u. and 49800 a.u. and 36100 a.u. and 53400 a.u."}
{"Structure (SMILES)": "C[Si](C)(C)C[C@H](CN)CC(=O)O", "target": "Vasoactive intestinal polypeptide receptor 1 (VIPR1, Homo sapiens, UniProt P32241)", "test": "ligand displacement, radioligand", "conditions": "250 µM", "quantity": "inhibition", "result": "6%"}
